Measurements of several laboratories.
Organism: Streptococcus pneumoniae

c1cc2c(s1)CCOC21CCN(Cc2ccc3c(c2)OCCO3)CC1  MIC (microbial growth, broth dilution; 1629): 64 µM
CN[C@@H]1[C@H](O)[C@H](NC)[C@H]2O[C@]3(O)[C@H](O[C@@H]2[C@H]1O)O[C@H](C)C[C@@]3(O)CNCc1ccc(OC(F)(F)F)cc1  MIC (R6): 3.1 µg/mL
CC[C@H](C)[C@H](N)C1=N[C@H](C(=O)N[C@@H](CC(C)C)C(=O)N[C@H](CCC(=O)O)C(=O)N[C@H](C(=O)N[C@H]2CCCCNC(=O)[C@H](CC(N)=O)NC(=O)[C@@H](CC(=O)O)NC(=O)[C@H](Cc3c[nH]cn3)NC(=O)[C@@H](Cc3ccc(-c4ccccc4)cc3)NC(=O)[C@H]([C@@H](C)CC)NC(=O)[C@@H](CCCN)NC2=O)[C@@H](C)CC)CS1  MIC (153, TSB with lysed horse blood; 24 h, 37 °C, together with: ZnSO4): 2 µg/mL
CC(C)[C@H](NC(=O)[C@H](CCCCN)NC(=O)[C@H](CCCNC(=N)N)NC(=O)CNC(=O)[C@H](C)NC(=O)[C@H](CC(N)=O)NC(=O)[C@H](CCCNC(=N)N)NC(=O)[C@@H](NC(=O)[C@H](CCCCN)NC(=O)[C@H](CC(=O)O)NC(=O)[C@@H](NC(=O)[C@@H](NC(=O)[C@H](CCCNC(=N)N)NC(=O)[C@H](CCCNC(=N)N)NC(=O)[C@H](Cc1c[nH]c2ccccc12)NC(=O)[C@H](Cc1c[nH]c2ccccc12)NC(=O)CN)[C@@H](C)O)C(C)C)C(C)C)C(=O)O  MIC (clinical strain; 18 h, 37 °C): > 256 µg/mL
CN[C@@H]1[C@H](O)[C@H](NC)[C@H]2O[C@]3(O)[C@H](O[C@@H]2[C@H]1O)O[C@H](C)C[C@@]3(O)CNCc1ccccc1  MIC (R6): 6.3 to 12.5 µg/mL
COc1ccc(CCNc2cc(-c3ccccc3)nc3ncnn23)cc1  MIC (microbial growth, broth dilution; 1629): > 64 µM
CN[C@@H]1[C@H](O)[C@H](NC)[C@H]2O[C@]3(O)[C@H](O[C@@H]2[C@H]1O)O[C@H](C)C[C@@]3(O)CNCc1ccc(F)cc1  MIC (D39X drug sensitive): 2 µg/mL
CC1(C)S[C@@H]2[C@H](NC(=O)[C@H](NC(=O)C3=C(O)C(c4ccccc4F)NC3=O)c3ccccc3)C(=O)N2[C@H]1C(=O)O (stereo partly drawn)  MIC (microbial growth, broth dilution; R6): < 0.2 µg/mL
c1ccc(CCNC2CCCc3c2[nH]c2ccc(C4CCCCC4)cc32)cc1 (stereo not drawn)  MIC (broth microdilution; T4, THY medium): 0.3 µg/mL
CCc1ccc([C@@H]2C[C@H](C(F)(F)F)n3ncc(C(=O)NCc4ccc(OC)cc4)c3N2)cc1  MIC (microbial growth, broth dilution; 1629): 64 µM
CC(C)[C@H](NC(=O)[C@H](CCCCN)NC(=O)[C@H](CCCNC(=N)N)NC(=O)[C@@H](NC(=O)[C@H](C)NC(=O)[C@H](CC(N)=O)NC(=O)[C@H](CCCNC(=N)N)NC(=O)[C@@H](NC(=O)[C@H](CCCCN)NC(=O)[C@H](CCCCN)NC(=O)[C@@H](NC(=O)[C@@H](NC(=O)[C@H](CCCNC(=N)N)NC(=O)[C@H](CCCNC(=N)N)NC(=O)[C@H](Cc1c[nH]c2ccccc12)NC(=O)[C@H](Cc1c[nH]c2ccccc12)NC(=O)CN)[C@@H](C)O)C(C)C)C(C)C)C(C)C)C(=O)O  MIC (clinical strain; 18 h, 37 °C): 128 µg/mL
Cc1ccc2nc(C)c(C(=O)NCc3cccs3)n2c1  MIC (microbial growth, broth dilution; 1629): > 64 µM
CC[C@@H](C)[C@H]1NC(=O)[C@H]([C@@H](C)CC)NC(=O)[C@@H](CCCN)NC(=O)[C@@H](NC(=O)[C@@H](NC(=O)[C@@H](CCC(=O)O)NC(=O)[C@H](CC(C)C)NC(=O)[C@@H]2CSC([C@@H](N)[C@@H](C)CC)=N2)[C@@H](C)CC)CCCCNC(=O)[C@H](CC(N)=O)NC(=O)[C@@H](CC(=O)O)NC(=O)[C@H](Cc2c[nH]cn2)NC1=O  MIC (153, TSB with lysed horse blood; 24 h, 37 °C, together with: ZnSO4): 64 µg/mL
Cc1cccc(-c2nc(Nc3ccncn3)c3c(C)csc3n2)n1  MIC (microbial growth, broth dilution; 1629): 16 µM
CC[C@H](C)[C@H](N)C1=N[C@H](C(=O)N[C@@H](CC(C)C)C(=O)N[C@H](CCC(=O)O)C(=O)N[C@H](C(=O)N[C@H]2CCCCNC(=O)[C@H](CC(N)=O)NC(=O)[C@@H](CC(=O)O)NC(=O)[C@H](Cc3c[nH]cn3)NC(=O)[C@@H](Cc3ccc4ccccc4c3)NC(=O)[C@H]([C@@H](C)CC)NC(=O)[C@@H](CCCN)NC2=O)[C@@H](C)CC)CS1  MIC (153, TSB with lysed horse blood; 24 h, 37 °C, together with: ZnSO4): 2 µg/mL

Excerpt of the above:
c1cc2c(s1)CCOC21CCN(Cc2ccc3c(c2)OCCO3)CC1  MIC (microbial growth, broth dilution; 1629): 64 µM
CC(C)[C@H](NC(=O)[C@H](CCCCN)NC(=O)[C@H](CCCNC(=N)N)NC(=O)[C@@H](NC(=O)[C@H](C)NC(=O)[C@H](CC(N)=O)NC(=O)[C@H](CCCNC(=N)N)NC(=O)[C@@H](NC(=O)[C@H](CCCCN)NC(=O)[C@H](CCCCN)NC(=O)[C@@H](NC(=O)[C@@H](NC(=O)[C@H](CCCNC(=N)N)NC(=O)[C@H](CCCNC(=N)N)NC(=O)[C@H](Cc1c[nH]c2ccccc12)NC(=O)[C@H](Cc1c[nH]c2ccccc12)NC(=O)CN)[C@@H](C)O)C(C)C)C(C)C)C(C)C)C(=O)O  MIC (clinical strain; 18 h, 37 °C): 128 µg/mL
